Measurements of several laboratories.
Each numbered part is a random draw from the data of one study; scales do not carry over between parts. Values joined by “and” are separate records of one study, mostly repeats; a detail may differ.
UniProt Q8TD19, sequence (whole entry, looked up): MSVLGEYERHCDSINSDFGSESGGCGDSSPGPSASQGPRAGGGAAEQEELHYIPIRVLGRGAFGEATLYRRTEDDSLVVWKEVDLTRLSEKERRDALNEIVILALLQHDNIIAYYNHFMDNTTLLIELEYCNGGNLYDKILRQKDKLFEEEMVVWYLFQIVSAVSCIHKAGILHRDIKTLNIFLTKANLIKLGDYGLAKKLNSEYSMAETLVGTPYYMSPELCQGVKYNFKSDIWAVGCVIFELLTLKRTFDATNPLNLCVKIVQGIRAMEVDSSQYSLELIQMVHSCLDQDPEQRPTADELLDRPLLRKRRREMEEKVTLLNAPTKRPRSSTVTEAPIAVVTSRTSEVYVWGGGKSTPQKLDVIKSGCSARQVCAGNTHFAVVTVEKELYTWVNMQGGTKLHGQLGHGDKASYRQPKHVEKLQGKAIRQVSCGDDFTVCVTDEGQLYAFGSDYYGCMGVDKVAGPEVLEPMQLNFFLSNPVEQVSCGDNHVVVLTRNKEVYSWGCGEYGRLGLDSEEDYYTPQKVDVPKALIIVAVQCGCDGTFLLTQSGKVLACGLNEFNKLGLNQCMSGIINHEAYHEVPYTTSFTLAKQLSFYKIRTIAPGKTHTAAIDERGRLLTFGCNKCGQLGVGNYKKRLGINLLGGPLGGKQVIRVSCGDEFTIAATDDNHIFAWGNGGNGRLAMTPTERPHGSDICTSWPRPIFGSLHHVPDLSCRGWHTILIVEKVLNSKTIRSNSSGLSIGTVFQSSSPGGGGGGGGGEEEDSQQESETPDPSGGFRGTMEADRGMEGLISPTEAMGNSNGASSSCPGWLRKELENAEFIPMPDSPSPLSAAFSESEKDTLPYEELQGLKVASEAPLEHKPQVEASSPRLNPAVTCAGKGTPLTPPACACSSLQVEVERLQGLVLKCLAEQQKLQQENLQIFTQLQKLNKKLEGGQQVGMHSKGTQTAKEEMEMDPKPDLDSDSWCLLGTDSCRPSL
UniProt O75116, sequence (whole entry, looked up): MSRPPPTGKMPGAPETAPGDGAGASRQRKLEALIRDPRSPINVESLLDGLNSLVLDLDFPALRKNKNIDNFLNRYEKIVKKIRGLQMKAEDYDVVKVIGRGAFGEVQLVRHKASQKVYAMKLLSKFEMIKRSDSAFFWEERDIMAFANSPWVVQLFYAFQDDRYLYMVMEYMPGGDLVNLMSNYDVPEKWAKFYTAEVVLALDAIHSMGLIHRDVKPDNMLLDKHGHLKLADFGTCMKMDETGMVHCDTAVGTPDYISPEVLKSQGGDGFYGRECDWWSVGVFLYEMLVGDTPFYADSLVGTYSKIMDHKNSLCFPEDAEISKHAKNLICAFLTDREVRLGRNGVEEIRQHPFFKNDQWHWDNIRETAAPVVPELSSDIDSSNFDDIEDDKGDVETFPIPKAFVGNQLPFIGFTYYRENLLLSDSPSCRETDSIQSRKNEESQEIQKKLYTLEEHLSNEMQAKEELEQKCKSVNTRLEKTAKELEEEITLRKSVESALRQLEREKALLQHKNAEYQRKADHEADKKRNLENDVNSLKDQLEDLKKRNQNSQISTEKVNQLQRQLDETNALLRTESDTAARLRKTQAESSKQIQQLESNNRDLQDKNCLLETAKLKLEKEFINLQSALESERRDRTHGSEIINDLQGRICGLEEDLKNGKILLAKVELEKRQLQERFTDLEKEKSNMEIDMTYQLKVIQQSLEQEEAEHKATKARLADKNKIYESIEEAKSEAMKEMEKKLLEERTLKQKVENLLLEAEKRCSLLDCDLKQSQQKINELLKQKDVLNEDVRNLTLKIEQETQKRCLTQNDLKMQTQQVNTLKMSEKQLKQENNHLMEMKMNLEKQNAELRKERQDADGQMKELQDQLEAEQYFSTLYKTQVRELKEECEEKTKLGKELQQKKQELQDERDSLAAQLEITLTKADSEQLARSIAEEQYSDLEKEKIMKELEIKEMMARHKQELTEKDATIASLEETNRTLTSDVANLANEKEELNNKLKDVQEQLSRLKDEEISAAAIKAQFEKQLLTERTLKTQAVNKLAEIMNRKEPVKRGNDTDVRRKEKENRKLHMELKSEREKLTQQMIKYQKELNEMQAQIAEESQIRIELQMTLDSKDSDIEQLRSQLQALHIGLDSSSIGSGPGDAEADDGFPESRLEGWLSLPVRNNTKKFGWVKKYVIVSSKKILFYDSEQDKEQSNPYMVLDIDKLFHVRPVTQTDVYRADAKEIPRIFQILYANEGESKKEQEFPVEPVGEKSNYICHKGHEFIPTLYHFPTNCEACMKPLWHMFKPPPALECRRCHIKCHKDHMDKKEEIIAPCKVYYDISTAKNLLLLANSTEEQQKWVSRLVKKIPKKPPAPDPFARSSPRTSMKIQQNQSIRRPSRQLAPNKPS
UniProt Q16288, sequence (whole entry, looked up): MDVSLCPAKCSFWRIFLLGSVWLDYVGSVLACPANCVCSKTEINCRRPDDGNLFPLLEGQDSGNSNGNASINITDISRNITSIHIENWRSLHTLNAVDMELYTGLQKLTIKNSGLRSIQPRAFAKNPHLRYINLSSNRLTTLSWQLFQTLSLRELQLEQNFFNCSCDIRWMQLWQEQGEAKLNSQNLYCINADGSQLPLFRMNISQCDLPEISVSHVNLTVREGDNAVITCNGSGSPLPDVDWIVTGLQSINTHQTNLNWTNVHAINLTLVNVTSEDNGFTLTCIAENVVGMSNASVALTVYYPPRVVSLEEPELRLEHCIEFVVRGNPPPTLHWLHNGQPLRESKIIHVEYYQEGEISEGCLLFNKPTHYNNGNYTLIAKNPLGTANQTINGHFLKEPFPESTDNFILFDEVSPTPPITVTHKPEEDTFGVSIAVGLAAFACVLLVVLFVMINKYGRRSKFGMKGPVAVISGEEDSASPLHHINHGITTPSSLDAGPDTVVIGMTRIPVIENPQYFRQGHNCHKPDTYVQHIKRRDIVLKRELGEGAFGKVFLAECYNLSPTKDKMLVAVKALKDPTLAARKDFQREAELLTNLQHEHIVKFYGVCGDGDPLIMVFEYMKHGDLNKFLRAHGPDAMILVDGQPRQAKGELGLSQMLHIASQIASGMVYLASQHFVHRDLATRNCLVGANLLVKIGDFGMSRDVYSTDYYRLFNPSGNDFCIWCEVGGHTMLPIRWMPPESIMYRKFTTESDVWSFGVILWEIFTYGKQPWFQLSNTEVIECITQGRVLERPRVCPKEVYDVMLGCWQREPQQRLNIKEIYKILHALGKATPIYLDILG
UniProt Q9H2G2, sequence (whole entry, looked up): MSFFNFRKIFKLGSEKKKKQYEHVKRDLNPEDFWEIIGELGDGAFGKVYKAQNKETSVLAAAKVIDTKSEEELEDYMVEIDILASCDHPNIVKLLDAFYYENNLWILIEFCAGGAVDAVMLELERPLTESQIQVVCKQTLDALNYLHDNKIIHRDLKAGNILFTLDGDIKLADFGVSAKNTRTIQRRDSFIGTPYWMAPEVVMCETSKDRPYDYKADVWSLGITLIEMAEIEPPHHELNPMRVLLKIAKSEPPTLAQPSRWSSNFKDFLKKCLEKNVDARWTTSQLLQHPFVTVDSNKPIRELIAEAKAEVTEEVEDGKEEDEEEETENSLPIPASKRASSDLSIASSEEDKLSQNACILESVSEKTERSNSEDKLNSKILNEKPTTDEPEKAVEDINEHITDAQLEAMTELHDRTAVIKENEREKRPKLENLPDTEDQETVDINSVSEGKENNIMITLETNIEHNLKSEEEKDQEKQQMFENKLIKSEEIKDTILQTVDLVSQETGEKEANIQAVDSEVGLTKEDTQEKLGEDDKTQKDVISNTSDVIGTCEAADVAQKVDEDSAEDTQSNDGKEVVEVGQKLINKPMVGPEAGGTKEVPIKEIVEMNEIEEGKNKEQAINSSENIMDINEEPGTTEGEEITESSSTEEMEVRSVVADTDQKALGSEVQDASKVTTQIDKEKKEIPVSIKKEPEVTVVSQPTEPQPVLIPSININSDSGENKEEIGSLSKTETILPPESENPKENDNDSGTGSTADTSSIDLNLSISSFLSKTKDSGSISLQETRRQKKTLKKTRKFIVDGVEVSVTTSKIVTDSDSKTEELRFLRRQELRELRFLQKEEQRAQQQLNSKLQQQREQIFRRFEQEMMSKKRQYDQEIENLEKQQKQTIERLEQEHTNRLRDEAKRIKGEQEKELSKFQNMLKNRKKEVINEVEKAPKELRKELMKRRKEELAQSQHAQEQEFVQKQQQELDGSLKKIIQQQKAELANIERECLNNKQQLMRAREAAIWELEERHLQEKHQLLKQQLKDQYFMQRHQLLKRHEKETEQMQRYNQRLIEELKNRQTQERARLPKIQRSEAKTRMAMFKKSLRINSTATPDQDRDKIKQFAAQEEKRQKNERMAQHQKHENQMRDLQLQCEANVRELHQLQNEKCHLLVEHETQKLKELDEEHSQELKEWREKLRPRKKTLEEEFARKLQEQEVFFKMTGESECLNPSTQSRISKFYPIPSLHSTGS
UniProt P34947, sequence (whole entry, looked up): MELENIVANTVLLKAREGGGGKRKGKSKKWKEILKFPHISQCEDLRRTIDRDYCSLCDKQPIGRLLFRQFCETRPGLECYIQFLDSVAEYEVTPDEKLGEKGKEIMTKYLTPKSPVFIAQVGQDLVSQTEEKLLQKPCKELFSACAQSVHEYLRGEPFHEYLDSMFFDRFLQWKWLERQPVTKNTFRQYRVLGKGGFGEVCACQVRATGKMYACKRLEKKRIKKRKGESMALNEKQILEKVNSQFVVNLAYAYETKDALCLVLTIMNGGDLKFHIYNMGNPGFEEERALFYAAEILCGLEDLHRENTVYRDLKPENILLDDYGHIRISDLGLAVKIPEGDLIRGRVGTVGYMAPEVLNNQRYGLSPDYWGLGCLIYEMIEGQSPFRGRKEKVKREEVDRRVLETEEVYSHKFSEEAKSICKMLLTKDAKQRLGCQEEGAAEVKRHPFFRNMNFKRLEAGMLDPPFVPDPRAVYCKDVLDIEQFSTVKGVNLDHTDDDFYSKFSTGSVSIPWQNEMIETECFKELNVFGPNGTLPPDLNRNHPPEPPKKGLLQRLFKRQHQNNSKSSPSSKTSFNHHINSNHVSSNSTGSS

Block 1 — cell line: normal-adjacent organoid sample F; method: CellTiter-Glo; concentration: 1 µM; notes: replicate mean; baseline: DMSO
For `C[C@H](c1ccnc(Nc2nc3ccc(-c4cc(N(C)C)ncn4)cc3[nH]2)c1)N1CCN(C(=O)CC(F)(F)F)CC1`, the viability was 109%.
For `CNC(=O)c1cc(C(=O)N[C@H]2[C@@H]3COC[C@@H]32)cc2c1O[C@H](CF)[C@H]2c1ccccc1`, the viability was 87.6%.
The viability of `COc1cc(-c2cn(C3CCc4ccccc4N(CC(F)(F)F)C3=O)nn2)ccc1-n1ccc(C)n1` (centres unmarked) is reported as 97.5%.
`O=C(NNS(=O)(=O)c1ccccc1)c1cc(-c2ccnnc2)ccc1F` gave a viability of 102%.
For `COc1cc(-c2cn(C3CCc4c(F)cccc4N(CC(F)(F)F)C3=O)nn2)ccc1-n1cnc(C)c1` (centres unmarked), the viability was 108%.
`Cc1cc(-n2nc(Cc3cc(F)cc(C(F)(F)F)c3)nc2C)ccc1C(N)=O` has a viability of 102%.
`CNC(=O)c1ccccc1Nc1cc(Nc2ccc(N3CCOCC3)cc2OC)ncc1C(F)(F)F` gave a viability of 29.7%.
`CNc1nc(-c2ccc3c(N)n[nH]c3c2)cc(N2C[C@@H](C(=O)NC3CCCCC3)CC[C@H]2C)n1` has a viability of 105%.
`CC(C)(O)c1cncc(-c2nc3ccc(F)cc3n2C2CC2)c1` has a viability of 104%.
`CN(C)[C@H]1CCN(c2cc(-c3ccccc3)nc3ccnn23)C1` has a viability of 118%.
For `CC1=C(C#N)C(c2ccc3c(c2)c(NC(=O)c2ccccc2C)nn3C)C(C#N)=C(C)N1`, the viability was 96.4%.

Block 2 — SMILES: CCOc1ccc(Nc2c3c(nc4ccccc24)CCC3)cc1; organism: Leishmania donovani; strain: DD8; sample: promastigotes
The promastigote number was 9.76e+06 and 9.86e+06 (0.66 µM, 72 h).
The promastigote number was 9.55e+06 and 9.58e+06 (0.03 µM, 72 h).
66.66 µM, 48 h — promastigote number: 1550 and 1250.
For 0.33 µM, 48 h: promastigote number read 4.33e+06 and 4.7e+06.
0.66 µM, 48 h — promastigote number: 4.35e+06 and 4.37e+06.
It gave 251000 and 221000 for promastigote number (6.66 µM, 72 h).
The promastigote number was 4.7e+06 and 4.37e+06 (0.03 µM, 48 h).

Block 3 — Compound: COc1ccc(-c2cnc3c(-c4ccsc4)cnn3c2)cc1; observed: enzyme activity; mode: inhibitor; concentration: 0.5 µM; baseline: control
PRKD1 (Homo sapiens, UniProt Q15139) — remaining activity: 95.1%.
The remaining activity was 107% (PKN2 (Homo sapiens, UniProt Q16513)).
The remaining activity was 83% (Cyclin-dependent kinase 2, with cyclin A (CDK2, Homo sapiens, UniProt P24941)).
For SLK (Homo sapiens, UniProt Q9H2G2): remaining activity read 86.3%.
For GRK5 (Homo sapiens, UniProt P34947): remaining activity read 97.4%.
The remaining activity was 103% (HIPK3 (Homo sapiens, UniProt Q9H422)).
It gave 81.8% for remaining activity (PTK2B (Homo sapiens, UniProt Q14289)).
The remaining activity was 68% (Aurora kinase A (AURKA, Homo sapiens, UniProt O14965)).
It gave 98.8% for remaining activity (ROS1 (Homo sapiens, UniProt P08922)).
The remaining activity was 100% (CAMK1G (Homo sapiens, UniProt Q96NX5)).
For CDK7 (Homo sapiens, UniProt P50613): remaining activity read 100%.
The remaining activity was 90.4% (ROCK2 (Homo sapiens, UniProt O75116)).
For CAMK1D (Homo sapiens, UniProt Q8IU85): remaining activity read 93.5%.
For NEK9 (Homo sapiens, UniProt Q8TD19): remaining activity read 90.3%.
The remaining activity was 98.7% (MAP3K2 (Homo sapiens, UniProt Q9Y2U5)).
For DMPK (Homo sapiens, UniProt Q09013): remaining activity read 100%.
The remaining activity was 92% (RET (Homo sapiens, UniProt P07949)).
The remaining activity was 105% (MAP3K8 (Homo sapiens, UniProt P41279)).
For BRSK1 (Homo sapiens, UniProt Q8TDC3): remaining activity read 81.5%.
For DYRK4 (Homo sapiens, UniProt Q9NR20): remaining activity read 129%.
For EGFR (Homo sapiens, UniProt P00533): remaining activity read 92.3%.
It gave 49.8% for remaining activity (NTRK3 (Homo sapiens, UniProt Q16288)).
It gave 87.3% for remaining activity (CSNK2A2 (Homo sapiens, UniProt P19784)).

Block 4 — species: human; sample: microsomes or S9; concentration: 2 µM; time: 0.5 h
`CCOc1ccc(C(=O)N2CC(c3nnc(-c4ccncc4)o3)C3(CCOCC3)C2)cc1` (centres unmarked) has a remaining compound of 74.7%.
`Cc1cc2n(n1)CC(CNC(C)COc1ccc(F)cc1F)CN2` (centres unmarked) gave a remaining compound of greater than 100%.
For `Cc1c(CNCC(c2cccs2)N(C)C)cc(C#N)n1C` (centres unmarked), the remaining compound was 62.9%.
`Cc1cc(C)n(-c2cccc(-c3cnc4n3CCOC4)c2)n1` gave a remaining compound of 46.2%.
`CNC(=O)c1cc(S(=O)(=O)NC(C)C)cs1` gave a remaining compound of greater than 100%.
`O=C1CCc2cc(S(=O)(=O)Nc3ccc(Cc4ccncc4)cc3)ccc2N1` has a remaining compound of 51.8%.
With `Cn1cnnc1C1CCCN1c1ncnc2c1c(Br)nn2C` (centres unmarked) the remaining compound was greater than 100%.

Single results of other studies
`CN1CCN(C(=O)c2ccc(NC(=O)Nc3ccc(N(C)c4ccnc(Nc5ccc(CS(C)(=O)=O)cc5)n4)cc3)cc2)CC1` has a remaining signal of 36% (PTK2 (Homo sapiens, UniProt Q05397); cell-free assay; 1 µM).
Under “CRP increased incidence”, `CC(C)n1cnc(-c2ccc(F)cc2)c1-c1ncc(C(=O)Nc2ccc(N3CCN(C)CC3)cc2)[nH]1` is recorded as 0% (IPF patients; 60 mg once daily, adverse event).
